# Measured values collected from several papers.
# Each numbered part is a random draw from the data of one study; scales do not carry over between parts. Values joined by “and” are separate records of one study, mostly repeats; a detail may differ.

# Block 1
# Target: Aurora kinase A (AURKA, Homo sapiens, UniProt O14965)
# Chain of UniProt O14965 (whole entry, looked up): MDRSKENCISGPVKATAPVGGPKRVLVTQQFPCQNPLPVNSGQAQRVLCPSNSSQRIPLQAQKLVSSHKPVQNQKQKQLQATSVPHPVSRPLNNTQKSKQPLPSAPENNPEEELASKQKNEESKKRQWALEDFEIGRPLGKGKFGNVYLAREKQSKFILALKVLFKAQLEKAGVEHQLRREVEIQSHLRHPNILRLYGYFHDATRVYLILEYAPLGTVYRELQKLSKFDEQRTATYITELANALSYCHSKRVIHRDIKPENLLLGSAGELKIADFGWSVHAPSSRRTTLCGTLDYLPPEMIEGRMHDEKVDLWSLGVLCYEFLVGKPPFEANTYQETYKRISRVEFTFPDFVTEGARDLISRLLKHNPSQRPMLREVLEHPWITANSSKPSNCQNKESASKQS
# Read-out: enzyme activity
# Action: inhibitor
# Concentration: 0.5 µM
# Relative to: control
SMILES,remaining activity [%]
CCOc1nc(NC(=O)Cc2cc(OC)ccc2OC)cc(N)c1C#N,104
CN(C)C[C@H]1CCn2c(c(C3=C(c4cn(C)c5ccccc45)C(=O)NC3=O)c3ccccc32)C1,87.7
COc1cc2c(cc1OC)-c1[nH]nc(Nc3cccc(F)c3)c1C2,94.6
CN([C@@H](Cc1ccc(OS(=O)(=O)c2cccc3cnccc23)cc1)C(=O)N1CCN(c2ccccc2)CC1)S(=O)(=O)c1cccc2cnccc12,86.2
CCN(CC)C(=O)c1ccc(Nc2nc(OCC3CCCCC3)c3[nH]cnc3n2)cc1,3.03
O=c1cc(-c2cccc3c2Sc2ccccc2S3)oc(N2CCOCC2)c1,91.7
Cc1nc2cc3nc(-c4cccs4)cnc3cc2n1C,84.8
COc1cc2ncnc(Nc3ccc(O)c(Br)c3)c2cc1OC,83.1
Cc1cn(-c2cc(NC(=O)c3ccc(C)c(Nc4nccc(-c5cccnc5)n4)c3)cc(C(F)(F)F)c2)cn1,78.9
Ic1cccc(CSc2nnc(-c3ccncc3)o2)c1,95.8
Cc1cc2ncc(-c3ccccc3)nc2cc1C,92.1

# Block 2
# Structure (SMILES): CO[C@@H]1[C@@H](OC(N)=O)[C@@H](O)[C@H](Oc2ccc3c(O)c(NC(=O)c4ccc(O)c(CC=C(C)C)c4)c(=O)oc3c2C)OC1(C)C
# Species: FVB/129P2 mice, Brca1-/- Trp53-/- TNBC allograft
# Route: intraperitoneal
# Dose: 100 mg/kg twice daily
conditions,tumour volume
9 days,2210 mm3 and 143 mm3 and 956 mm3 and 226 mm3 and 785 mm3 and 955 mm3 and 1820 mm3
5 days,522 mm3 and 143 mm3 and 700 mm3 and 415 mm3 and 923 mm3 and 153 mm3 and 847 mm3
47 days,3750 mm3
41 days,1140 mm3
29 days,670 mm3 and 260 mm3 and 1670 mm3
23 days,174 mm3 and 1350 mm3 and 1250 mm3 and 378 mm3
0 days,186 mm3 and 164 mm3 and 106 mm3 and 128 mm3 and 141 mm3 and 127 mm3 and 220 mm3
11 days,2370 mm3 and 727 mm3 and 1030 mm3 and 142 mm3 and 279 mm3 and 2350 mm3 and 736 mm3

# Block 3
# Cell line: mouse MPNST tumor cells
# Method: high-content nuclear imaging
# Refers to: cell number
# Concentration: 10 µM
# Time: 12 h
# Notes: mean of 2 replicates
# Relative to: plate mean
# Reading: higher = more cells
SMILES,nuclei count [z-score]
COc1cccc(N(C)C(=S)Oc2ccc3c(c2)CCCC3)n1,1.02
CN(C)CCC(c1ccc(Cl)cc1)c1ccccn1 (centres unmarked),2.88
O=C1OC(OC(=O)c2cccnc2Nc2cccc(C(F)(F)F)c2)c2ccccc21 (centres unmarked),0.507
O=C(NC12CC3CC(CC(C3)C1)C2)c1cnc2ccccc2n1,1.2
CC(=O)O[C@]1(C(C)=O)CC[C@H]2[C@@H]3C=C(C)C4=CC(=O)CC[C@@H]4[C@H]3CC[C@@]21C,0.505
Nc1cccc(-c2cc3c(Oc4cccc(O)c4)ncnc3[nH]2)c1,-3.28
CC[C@@H](C)c1ccc(NC(=O)Cn2cnc3c2c(=O)n(C)c(=O)n3C)cc1 (racemic),-0.0377
Cc1cc(NC(=O)Nc2ccc(F)c(F)c2)n(-c2ccccc2)n1,2.52
CC(CCc1ccccc1)NCC(O)c1ccc(O)c(C(N)=O)c1 (centres unmarked),1.86

# Block 4
# Target: Alpha-1D adrenergic receptor (ADRA1D, Homo sapiens, UniProt P25100)
# Chain of UniProt P25100 (whole entry, looked up): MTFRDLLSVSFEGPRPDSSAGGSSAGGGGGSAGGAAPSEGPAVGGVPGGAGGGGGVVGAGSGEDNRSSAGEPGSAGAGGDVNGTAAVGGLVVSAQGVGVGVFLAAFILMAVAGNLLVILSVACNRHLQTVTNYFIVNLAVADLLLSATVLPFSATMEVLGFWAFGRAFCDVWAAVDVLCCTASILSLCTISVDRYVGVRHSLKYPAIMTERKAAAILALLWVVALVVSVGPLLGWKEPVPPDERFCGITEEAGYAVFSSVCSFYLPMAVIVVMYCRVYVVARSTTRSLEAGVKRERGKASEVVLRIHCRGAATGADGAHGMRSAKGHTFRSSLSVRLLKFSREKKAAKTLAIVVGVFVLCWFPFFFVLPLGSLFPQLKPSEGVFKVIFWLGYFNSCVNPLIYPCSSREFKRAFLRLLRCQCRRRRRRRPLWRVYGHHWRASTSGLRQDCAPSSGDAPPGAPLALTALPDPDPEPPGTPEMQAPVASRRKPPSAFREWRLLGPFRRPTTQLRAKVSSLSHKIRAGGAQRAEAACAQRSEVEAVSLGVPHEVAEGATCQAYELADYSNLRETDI
# Read-out: binding
# Method: radioligand binding
SMILES,Ki [µM]
CN([C@@H]1CCc2c(CC(=O)O)c3ccccc3n2C1)S(=O)(=O)c1ccc(F)cc1,> 10
O=C(NS(=O)(=O)c1ccc(NCC2CCOCC2)c([N+](=O)[O-])c1)c1ccc(N2CCN(Cc3ccc(C(F)(F)F)cc3-c3ccc(Cl)cc3)CC2)cc1Oc1cnc2[nH]ccc2c1,> 10
CC(=O)N1CCC(c2ccc(C(=O)NC3=NCCN3)cc2C(F)(F)F)CC1,> 10
CC(=O)N1CCC(c2ccc(C(=O)NC(=N)N)cc2C(F)(F)F)CC1,> 10

# Excerpt of the above (block 3):
SMILES,nuclei count [z-score]
CC[C@@H](C)c1ccc(NC(=O)Cn2cnc3c2c(=O)n(C)c(=O)n3C)cc1 (racemic),-0.0377
CN(C)CCC(c1ccc(Cl)cc1)c1ccccn1 (centres unmarked),2.88
Cc1cc(NC(=O)Nc2ccc(F)c(F)c2)n(-c2ccccc2)n1,2.52
O=C(NC12CC3CC(CC(C3)C1)C2)c1cnc2ccccc2n1,1.2
CC(=O)O[C@]1(C(C)=O)CC[C@H]2[C@@H]3C=C(C)C4=CC(=O)CC[C@@H]4[C@H]3CC[C@@]21C,0.505
